# Published values pooled from the literature.
# Lines come from different studies, so protocols differ. Numbers after ± are the reported error.
# lecA: PA-I galactophilic lectin (lecA, Pseudomonas aeruginosa, UniProt Q05097)
# Sequence of UniProt Q05097 (whole entry, looked up): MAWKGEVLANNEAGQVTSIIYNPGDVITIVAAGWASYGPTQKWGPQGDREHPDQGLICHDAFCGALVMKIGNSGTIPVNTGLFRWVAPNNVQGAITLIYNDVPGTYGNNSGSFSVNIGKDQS
# YWHAZ: 14-3-3 protein zeta/delta (YWHAZ, Homo sapiens, UniProt P63104)
# Sequence of UniProt P63104 (whole entry, looked up): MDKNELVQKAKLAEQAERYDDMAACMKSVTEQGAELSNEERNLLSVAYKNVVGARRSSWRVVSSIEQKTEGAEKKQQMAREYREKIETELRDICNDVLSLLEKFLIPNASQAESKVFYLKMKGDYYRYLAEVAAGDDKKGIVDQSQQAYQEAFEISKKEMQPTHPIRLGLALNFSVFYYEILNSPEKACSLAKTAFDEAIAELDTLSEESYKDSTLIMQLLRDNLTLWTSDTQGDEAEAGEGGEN
# Histone chaperone ASF1A: Histone chaperone ASF1A (Homo sapiens, UniProt Q9Y294)
# Sequence of UniProt Q9Y294 (whole entry, looked up): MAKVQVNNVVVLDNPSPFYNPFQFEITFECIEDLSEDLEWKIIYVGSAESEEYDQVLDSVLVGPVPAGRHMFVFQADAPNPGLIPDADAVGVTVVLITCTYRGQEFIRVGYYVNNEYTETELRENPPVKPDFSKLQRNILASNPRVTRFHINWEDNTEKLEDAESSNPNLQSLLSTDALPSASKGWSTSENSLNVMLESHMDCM
# Complement C3: Complement C3 (Homo sapiens, UniProt P01024)
# Sequence of UniProt P01024 (whole entry, looked up): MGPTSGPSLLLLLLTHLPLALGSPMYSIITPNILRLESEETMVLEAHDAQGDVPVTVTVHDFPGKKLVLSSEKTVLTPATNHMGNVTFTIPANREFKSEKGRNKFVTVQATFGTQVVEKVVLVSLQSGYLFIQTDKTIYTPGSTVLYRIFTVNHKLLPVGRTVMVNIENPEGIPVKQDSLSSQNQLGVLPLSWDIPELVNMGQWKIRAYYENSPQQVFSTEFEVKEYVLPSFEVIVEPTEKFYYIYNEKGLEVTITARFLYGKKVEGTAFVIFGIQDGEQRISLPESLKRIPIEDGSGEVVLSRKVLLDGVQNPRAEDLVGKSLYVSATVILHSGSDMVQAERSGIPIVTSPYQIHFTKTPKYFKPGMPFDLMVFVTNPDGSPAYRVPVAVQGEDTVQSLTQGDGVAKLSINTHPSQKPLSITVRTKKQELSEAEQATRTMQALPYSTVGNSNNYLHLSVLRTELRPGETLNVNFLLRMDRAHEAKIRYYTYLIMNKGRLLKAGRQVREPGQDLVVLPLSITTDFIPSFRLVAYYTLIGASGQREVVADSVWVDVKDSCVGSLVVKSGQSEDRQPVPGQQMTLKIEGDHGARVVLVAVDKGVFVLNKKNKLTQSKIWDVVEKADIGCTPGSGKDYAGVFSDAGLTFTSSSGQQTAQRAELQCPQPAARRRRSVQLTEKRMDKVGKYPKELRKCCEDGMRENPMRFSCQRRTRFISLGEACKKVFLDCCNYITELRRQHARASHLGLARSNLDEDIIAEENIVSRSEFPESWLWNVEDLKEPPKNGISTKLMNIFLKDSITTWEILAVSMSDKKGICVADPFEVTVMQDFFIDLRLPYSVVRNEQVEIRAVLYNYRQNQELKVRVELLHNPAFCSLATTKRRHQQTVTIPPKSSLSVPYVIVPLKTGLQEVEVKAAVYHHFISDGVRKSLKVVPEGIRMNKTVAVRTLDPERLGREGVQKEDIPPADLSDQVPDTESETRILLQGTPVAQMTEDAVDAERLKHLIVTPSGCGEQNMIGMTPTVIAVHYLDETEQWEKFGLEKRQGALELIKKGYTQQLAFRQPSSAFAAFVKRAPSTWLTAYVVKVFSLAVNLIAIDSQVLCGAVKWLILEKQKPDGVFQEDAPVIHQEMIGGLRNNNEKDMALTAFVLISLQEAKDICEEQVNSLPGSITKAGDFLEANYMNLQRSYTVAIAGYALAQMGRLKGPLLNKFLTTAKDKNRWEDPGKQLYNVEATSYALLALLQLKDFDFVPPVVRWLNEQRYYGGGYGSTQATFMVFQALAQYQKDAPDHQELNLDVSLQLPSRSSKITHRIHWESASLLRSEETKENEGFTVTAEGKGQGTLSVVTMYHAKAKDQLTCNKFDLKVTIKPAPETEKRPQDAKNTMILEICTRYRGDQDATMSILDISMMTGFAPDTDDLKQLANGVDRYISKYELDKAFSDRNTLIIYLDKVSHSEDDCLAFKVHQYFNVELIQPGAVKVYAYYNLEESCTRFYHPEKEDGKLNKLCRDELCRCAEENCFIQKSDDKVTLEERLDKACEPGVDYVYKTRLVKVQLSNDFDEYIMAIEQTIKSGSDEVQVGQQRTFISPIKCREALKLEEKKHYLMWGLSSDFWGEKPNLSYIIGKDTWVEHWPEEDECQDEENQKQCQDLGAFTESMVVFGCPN
# Sequence of UniProt Q61143 (whole entry, unmodified, looked up): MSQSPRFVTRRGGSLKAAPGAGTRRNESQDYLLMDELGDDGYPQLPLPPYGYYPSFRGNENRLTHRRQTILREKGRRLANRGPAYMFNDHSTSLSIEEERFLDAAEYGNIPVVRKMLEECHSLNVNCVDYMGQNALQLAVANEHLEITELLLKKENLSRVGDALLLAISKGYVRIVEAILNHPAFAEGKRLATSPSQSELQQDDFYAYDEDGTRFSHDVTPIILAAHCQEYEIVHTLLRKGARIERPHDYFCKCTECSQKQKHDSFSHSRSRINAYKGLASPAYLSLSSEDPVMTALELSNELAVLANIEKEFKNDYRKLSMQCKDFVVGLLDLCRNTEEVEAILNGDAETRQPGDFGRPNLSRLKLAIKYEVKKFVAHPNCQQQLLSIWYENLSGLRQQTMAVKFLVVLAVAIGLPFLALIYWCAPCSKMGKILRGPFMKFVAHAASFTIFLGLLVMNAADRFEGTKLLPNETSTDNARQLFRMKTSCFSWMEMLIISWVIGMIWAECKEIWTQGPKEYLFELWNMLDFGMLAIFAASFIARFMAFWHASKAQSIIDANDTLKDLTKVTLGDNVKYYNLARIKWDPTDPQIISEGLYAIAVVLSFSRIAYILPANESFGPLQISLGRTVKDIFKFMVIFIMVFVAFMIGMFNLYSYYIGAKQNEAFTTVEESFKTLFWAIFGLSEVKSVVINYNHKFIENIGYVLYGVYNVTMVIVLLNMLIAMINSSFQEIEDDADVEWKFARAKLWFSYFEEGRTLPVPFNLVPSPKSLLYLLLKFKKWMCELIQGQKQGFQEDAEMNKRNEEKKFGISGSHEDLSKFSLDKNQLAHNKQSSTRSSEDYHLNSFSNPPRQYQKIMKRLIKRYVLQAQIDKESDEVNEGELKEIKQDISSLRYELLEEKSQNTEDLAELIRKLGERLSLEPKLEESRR
# Sequence of UniProt Q04609 (whole entry, looked up): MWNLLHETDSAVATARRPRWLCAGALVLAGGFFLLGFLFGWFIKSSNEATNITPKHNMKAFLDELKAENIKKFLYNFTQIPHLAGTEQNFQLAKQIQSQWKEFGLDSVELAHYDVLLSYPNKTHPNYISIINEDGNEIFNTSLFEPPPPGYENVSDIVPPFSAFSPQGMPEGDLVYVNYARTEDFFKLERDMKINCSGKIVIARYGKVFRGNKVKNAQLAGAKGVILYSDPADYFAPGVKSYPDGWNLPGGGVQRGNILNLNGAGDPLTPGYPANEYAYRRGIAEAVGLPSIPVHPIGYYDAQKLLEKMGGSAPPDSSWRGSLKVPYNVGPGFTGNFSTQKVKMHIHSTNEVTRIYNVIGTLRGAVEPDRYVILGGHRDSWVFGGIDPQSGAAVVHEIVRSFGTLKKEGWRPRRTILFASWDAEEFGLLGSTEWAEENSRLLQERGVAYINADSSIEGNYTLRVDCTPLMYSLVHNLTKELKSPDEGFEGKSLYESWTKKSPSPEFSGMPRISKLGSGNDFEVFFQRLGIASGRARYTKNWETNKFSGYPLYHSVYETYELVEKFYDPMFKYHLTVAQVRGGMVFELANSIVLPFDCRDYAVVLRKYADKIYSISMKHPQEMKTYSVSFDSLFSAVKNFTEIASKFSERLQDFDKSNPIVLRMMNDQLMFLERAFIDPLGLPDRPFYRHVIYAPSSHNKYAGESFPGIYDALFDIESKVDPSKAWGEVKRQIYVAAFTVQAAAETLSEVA
# Sequence of UniProt P03951 (whole entry, looked up): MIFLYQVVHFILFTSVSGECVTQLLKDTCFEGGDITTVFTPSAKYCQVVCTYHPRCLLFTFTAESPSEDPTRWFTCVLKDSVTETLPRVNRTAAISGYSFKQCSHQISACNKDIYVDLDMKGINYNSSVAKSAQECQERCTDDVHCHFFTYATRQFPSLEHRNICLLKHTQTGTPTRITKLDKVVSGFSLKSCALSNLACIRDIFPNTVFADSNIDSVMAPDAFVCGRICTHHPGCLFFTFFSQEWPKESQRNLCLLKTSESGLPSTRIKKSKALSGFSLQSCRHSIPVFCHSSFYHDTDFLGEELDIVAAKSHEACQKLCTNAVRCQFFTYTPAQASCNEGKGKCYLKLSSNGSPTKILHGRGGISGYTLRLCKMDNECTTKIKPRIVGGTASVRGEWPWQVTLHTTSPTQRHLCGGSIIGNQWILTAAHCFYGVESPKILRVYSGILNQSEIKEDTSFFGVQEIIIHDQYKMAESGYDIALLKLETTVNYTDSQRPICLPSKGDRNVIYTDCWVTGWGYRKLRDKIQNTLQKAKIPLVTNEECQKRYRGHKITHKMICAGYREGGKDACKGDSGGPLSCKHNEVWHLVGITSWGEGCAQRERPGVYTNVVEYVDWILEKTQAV
# Sequence of UniProt Q9BY41 (whole entry, unmodified, looked up): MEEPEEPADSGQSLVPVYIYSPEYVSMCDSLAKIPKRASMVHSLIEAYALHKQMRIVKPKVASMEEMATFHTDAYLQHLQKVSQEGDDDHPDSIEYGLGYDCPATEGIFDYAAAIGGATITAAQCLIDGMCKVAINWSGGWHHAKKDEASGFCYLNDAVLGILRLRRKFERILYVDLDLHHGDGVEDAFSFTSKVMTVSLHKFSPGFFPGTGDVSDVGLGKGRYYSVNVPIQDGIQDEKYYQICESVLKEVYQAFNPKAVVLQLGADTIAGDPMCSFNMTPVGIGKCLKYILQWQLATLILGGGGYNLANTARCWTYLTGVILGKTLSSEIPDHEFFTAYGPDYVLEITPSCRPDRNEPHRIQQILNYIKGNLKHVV
# Sequence of UniProt P62942 (whole entry, looked up): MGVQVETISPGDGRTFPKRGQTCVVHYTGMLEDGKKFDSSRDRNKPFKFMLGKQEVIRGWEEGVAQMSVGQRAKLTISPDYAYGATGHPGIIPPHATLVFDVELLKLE
SMILES,target,assay,system,conditions,how to read,endpoint,value
COc1ccc(C(=O)/C=C/c2ccc(O)cc2)c(O)c1CC=C(C)C,"Amine oxidase [flavin-containing] B (Maob, Rattus norvegicus, UniProt P19643)",inhibitor,,"concentration not given, with: benzylamine",relative to: xanthoangelol,MAO-B inhibitory potency,~15 fold
CCCC[C@H](NC(=O)[C@@H]1CSSC[C@H](NC(=O)[C@@H](NC(C)=O)[C@@H](C)CC)C(=O)N[C@@H](C(C)C)C(=O)N[C@@H](Cc2cn(C)c3ccccc23)C(=O)N[C@@H](CCC(N)=O)C(=O)N[C@@H](CC(=O)O)C(=O)N[C@@H](Cc2c[nH]c3ccccc23)C(=O)N(C)CC(=O)N[C@@H](C)C(=O)N[C@@H](Cc2c[nH]cn2)C(=O)N[C@@H](CCCNC(=N)N)C(=O)N1)C(N)=O,"Complement C3, C3b fragment (Homo sapiens, UniProt P01024)",SPR,,25 °C,relative to: [Trp(Me)4]-Ac-compstatin,relative KD,2.7
O=C(NC1CCCCC1)C(c1cccnc1)N(C(=O)CCl)c1ccc(F)cc1 (racemic),"Glutathione S-transferase omega-1 (GSTO1, Homo sapiens, UniProt P78417)",LC-MS/MS,,sum of normalized AUCs,,total modified species,100%
CC1=[N+]2N=C(c3ccccc3)[O][Pd-2]2([Cl])[O+]=C2Oc3ccccc3C=C21 (stereo not shown),yeast tRNA,ethidium bromide displacement,,,,fluorescence quenching,61.5%
Cc1ccc(C(=O)Nc2ccc(CP(=O)(O)O)cc2CP(=O)(O)O)cc1NC(=O)c1cccc(NC(=O)Nc2cccc(C(=O)Nc3cc(C(=O)Nc4ccc(CP(=O)(O)O)cc4CP(=O)(O)O)ccc3C)c2)c1,"Coagulation factor XI (F11, Homo sapiens, UniProt P03951)","enzyme activity, inhibitor",,"10 µM, with: S-2366 substrate",,Km,330 ± 40 µM
Cc1cc(=O)c2c(O)c3c(OC4OC(CO)C(O)C(O)C4O)cccc3cc2o1 (stereo not shown),"Amine oxidase [flavin-containing] A (MAOA, Homo sapiens, UniProt P21397)","inhibitor, Lineweaver-Burk secondary plot",,uncompetitive component,,Kiu,12.3 µM
OC[C@H]1O[C@@H](Oc2ccc(-c3cn([C@@H]4O[C@H](CO)[C@@H](n5cc(CCCCc6cn([C@H]7[C@H](O)[C@@H](O)[C@H](n8cc(-c9ccc(O[C@@H]%10O[C@H](CO)[C@H](O)[C@H](O)[C@H]%10O)cc9)nn8)O[C@@H]7CO)nn6)nn5)[C@H](O)[C@H]4O)nn3)cc2)[C@H](O)[C@@H](O)[C@H]1O,lecA,isothermal titration calorimetry,,25 °C,,ΔG,-9.6 ± 0.2 kcal/mol
O=[N+]([O-])c1ccc(O)c(O)c1,lecA,surface plasmon resonance,,,,ligand efficiency,0.4
CCC1(CC)C(=O)N(c2cccc(CN3CCN(c4cc(C)nc5ccc(Br)cc45)CC3)c2)C1=O,"Dipeptidyl peptidase 9 (DPP9, Homo sapiens, UniProt Q86TI2)","probe labelling, inhibitor, competitive ABPP mass spectrometry",U-937 cell lysate,"10 µM, with: FP-biotin 10 µM",relative to: DMSO over compound,SILAC ratio,> 3
O=C([O-])CN(CCN(CC(=O)[O-])Cc1cc(CCC(=O)NCCCCCC(=O)NCCCC[C@H](NC(=O)N[C@@H](CCC(=O)O)C(=O)O)C(=O)O)ccc1O)Cc1cc(CCC(=O)O)ccc1[O-].[68Ga+3],"Glutamate carboxypeptidase 2 (FOLH1, Homo sapiens, UniProt Q04609)",PET/CT,"prostate cancer patients, lymph nodes metastases",,relative to: lymph nodes metastases over liver,tumour-to-normal tissue ratio,8.68 ± 6.92
C=C1CCN2C(=O)COc3cccc(c3)C(CCc3ccc(OC)c(OC)c3)OC(=O)C3CCCCN3C(=O)C(=O)C(C)(C)COC(=O)C(CCOC)NC(=O)C2C1 (stereo not shown),"FKBP1A/MAPRE1 (Homo sapiens, UniProt P62942+Q15691)","FKBP12-MAPRE1 proximity, TR-FRET",,,relative to: DMSO,Emax,51%
[3H]C([3H])([3H])c1cnccc1CN1C[C@@H](c2cc(F)c(F)c(F)c2)CC1=O,"Synaptic vesicle glycoprotein 2A (SV2A, Homo sapiens, UniProt Q7L0J3)",radioligand binding,"human Alzheimer disease, hippocampus P2 fraction",5 nM,relative to: control brains,loss of specific binding,~70.3%
CC(C)=CCC[C@](C)(O)[C@H]1CC[C@]2(C)[C@@H]1[C@H](O)C[C@@H]1[C@@]3(C)CC[C@H](O)C(C)(C)[C@@H]3CC[C@]12C,YWHAZ,isothermal titration calorimetry,,concentration not given,,binding enthalpy,-1.93 ± 0.179 kcal/mol
CCCC[C@@H](CNC(=O)N[C@@H](CCC(N)=O)CNC(=O)N[C@@H](CCCNC(=N)N)C(=O)N[C@H](C(=O)N[C@@H](C)C(N)=O)[C@@H](C)CC)NC(=O)NC[C@H](CCCNC(=N)N)NC(=O)NC[C@H](Cc1ccc2ccccc2c1)NC(=O)[C@H](CCCCN)NC(=O)[C@H](CCC(=O)O)NC(C)=O,Histone chaperone ASF1A,isothermal titration calorimetry,,"concentration not given, pH 7.5, 20 °C",,binding enthalpy,-2.2 ± 0.3 kcal/mol
CSCC[C@H](NC(C)=O)C(=O)NCC(=O)NCC(=O)N[C@@H](CCC(=O)O)C(=O)N[C@@H](CC(C)C)C(=O)N[C@H](C(=O)N[C@H](C(=O)NCC(=O)N[C@@H](CC(C)C)C(=O)NCC(=O)N[C@@H](C)C(=O)N[C@@H](CC(C)C)C(=O)N[C@@H](CCCNC(=N)N)C(=O)N[C@@H](CCCNC(=N)N)C(=O)N[C@@H](CCCNC(=N)N)C(=O)N[C@@H](CCCCN)C(=O)N[C@@H](CCCNC(=N)N)C(=O)N[C@@H](CC(C)C)C(=O)N[C@@H](CC(C)C)C(=O)N[C@@H](CCC(=O)O)C(=O)N[C@@H](CCC(N)=O)C(=O)N[C@@H](CCC(=O)O)C(=O)N[C@@H](CCCCN)C(=O)N[C@@H](CCCNC(=N)N)C(N)=O)[C@@H](C)O)C(C)C,"Kcnma1 (Mus musculus, UniProt Q08460)","ion current, blocker, whole-cell patch clamp",,"250 µM, +50 mV after DCEBIO washout",,block time constant,28 ms
Nc1ncnc2c1ncn2[C@H]1C[C@H](O)[C@@H](COP(=O)(O)OP(=O)(O)[C@@H](Cl)P(=O)(O)O)O1,"DNA polymerase eta (POLH, Homo sapiens, UniProt Q9Y253)","dNTP incorporation, single-turnover kinetics",,"W sequence, A·T pair",relative to: non-enzymatic LFER line,delta effective pKa4,0.4 pK units
[N-]=[N+]=N[C@H]1[C@H](O)[C@@H](O)[C@H](n2cc(CO[C@@H]3O[C@H](CO)[C@H](O)[C@H](O)[C@H]3O)nn2)O[C@@H]1CO,lecA,isothermal titration calorimetry,,"concentration not given, 25 °C",,binding stoichiometry,1 ± 0.01
CC(=O)N[C@H]1NC[C@H](C(=O)O)[C@H](O)[C@@H]1O,"Sialidase-2 (Homo sapiens, UniProt Q9Y3R4)","α2,3-sialyllactose hydrolysis",,"600 µM, 1 h, pH 4.0, with: α2,3-sialyllactose",,released sialic acid,277 µmol
CC[C@H](C)[C@H](NC(=O)[C@H](CCCNC(=N)N)NC(=O)[C@H](CCCCN)NC(=O)[C@@H](NC(=O)[C@H](C)NC(=O)[C@H](CCCNC(=N)N)NC(=O)[C@H](CCC(N)=O)NC(=O)[C@H](CO)NC(=O)[C@H](CCCCN)NC(=O)[C@H](CC(N)=O)NC(=O)[C@@H](N)CCCNC(=N)N)[C@@H](C)O)C(=O)N[C@@H](COP(=O)(O)O)C(=O)N[C@@H](Cc1c[nH]cn1)C(=O)N[C@@H](CCSC)C(=O)N1CCC[C@H]1C(=O)N[C@@H](CO)C(=O)N[C@@H](CCCNC(=N)N)C(=O)N1CCC[C@H]1C(=O)N[C@@H](CCC(=O)O)C(=O)N[C@@H](CC(C)C)C(=O)N[C@@H](CO)C(=O)N[C@@H](C)C(=O)N[C@H](C(=O)N[C@@H](C)C(=O)N[C@H](C(=O)N[C@@H](CC(=O)O)C(=O)N[C@@H](CC(C)C)C(=O)N[C@@H](CCCNC(=N)N)C(=O)N[C@@H](CCCCN)C(=O)N[C@@H](CC(=O)O)C(=O)N[C@@H](CCCCN)C(=O)N[C@@H](C)C(=O)N[C@@H](CCCCN)C(=O)N[C@@H](COP(=O)(O)O)C(=O)N[C@@H](CS)C(=O)OC)[C@@H](C)O)C(C)C,YWHAZ,"binding, stopped-flow fluorescence polarization",,,,kon,5.75e+07 M⁻¹ s⁻¹
CC(=O)Nc1ncc(S(N)(=O)=O)s1,"cah (Neisseria gonorrhoeae, UniProt Q50940)",CO2 hydration,,,relative to: compound over acetazolamide,Ki ratio,8.5 fold
CC(/C=C/C(=O)NO)=C\[C@@H](C)C(=O)c1ccc(N(C)C)cc1,"Histone deacetylase 8 (HDAC8, Homo sapiens, UniProt Q9BY41)",temperature-dependent ITC,,,,temperature where ΔG equals ΔH,295 K
Cc1ncsc1-c1ccc(CNC(=O)[C@@H]2C[C@@H](O)CN2C(=O)[C@@H](NC(=O)COCCOCCOCCNC(=O)C[C@@H]2N=C(c3ccc(Cl)cc3)c3c(sc(C)c3C)-n3c(C)nnc32)C(C)(C)C)cc1,"BRD2/VHL, BD1; with VCB (Homo sapiens, UniProt P25440+P40337, K107A/Q101K/V106E)",ITC,,"25 °C, ternary complex with VCB, BRD2 BD1 KEA",relative to: binary Kd over ternary Kd,cooperativity,8
O=C1c2ccc(O)cc2OC2c3cc(-c4coc5cc(O)ccc5c4=O)ccc3OC12c1ccc(O)cc1 (stereo not shown),laccase (Trametes versicolor),substrate,,product formation,,Km,428 ± 23 µM
CC[C@H](C)[C@H](NC(C)=O)C(=O)N[C@H]1CSSC[C@@H](C(=O)N[C@H](C(N)=O)[C@@H](C)O)NC(=O)[C@H](CCCNC(=N)N)NC(=O)[C@H](Cc2c[nH]cn2)NC(=O)[C@H](C)NC(=O)CNC(=O)[C@H](Cc2c[nH]c3ccccc23)NC(=O)[C@H](CC(=O)O)NC(=O)[C@H](CCC(N)=O)NC(=O)[C@H](Cc2ccc(OC)cc2)NC(=O)[C@H](C(C)C)NC1=O,Complement C3,isothermal titration calorimetry,,,relative to: 1-methyltryptophan reference,-TΔΔS,1.6 kcal/mol
CN(C1COC1)C(C)(C)/C=C(\C#N)C(=O)N1CCC[C@H]1Cn1nc(-c2ccc(Oc3ccccc3)cc2F)c2c(N)ncnc21,"Tyrosine-protein kinase BTK (BTK, Homo sapiens, UniProt Q06187, C481S)",autophosphorylation,HEK293,,relative to: C481S mutant over wild type,potency ratio,> 50 fold
COc1ccc(S(=O)(=O)N2CCN(CC(=O)Nc3ccc(OC)cc3OC)C(=O)C2)cc1,"Metabotropic glutamate receptor 4 (GRM4, Homo sapiens, UniProt Q14833)","calcium mobilization, positive allosteric modulator",CHO cells expressing Gqi5,with: glutamate EC20,,EC50,inactive
CC[C@H](C)[C@H](NC(C)=O)C(=O)N[C@H]1CSSC[C@@H](C(=O)N[C@H](C(N)=O)[C@@H](C)O)NC(=O)[C@H](CCCNC(=N)N)NC(=O)[C@H](Cc2c[nH]cn2)NC(=O)[C@@H]2CCCN2C(=O)CNC(=O)[C@H](Cc2c[nH]c3ccccc23)NC(=O)[C@H](CC(=O)O)NC(=O)[C@H](CCC(N)=O)NC(=O)[C@H](Cc2cn(C)c3ccccc23)NC(=O)[C@H](C(C)C)NC1=O,Complement C3,ITC,,"pH 7.4, 25 °C",,−TΔS,5.2 kcal/mol
O=C(c1cc2c(s1)CCCCC2)N1CCC(n2c(=O)[nH]c3ccccc32)CC1,"Short transient receptor potential channel 6 (Trpc6, Mus musculus, UniProt Q61143, E671C)","ion current, agonist, whole-cell patch clamp",,E671C mutant,relative to: 3 µM over 1 µM,current ratio,6.1 ± 0.46
[N-]=[N+]=NCCNC(=O)c1ccc(S[C@@H]2O[C@H](CO)[C@H](O)[C@H](O)[C@H]2O)cc1,lecA,"binding, isothermal titration calorimetry",,25 °C,,−TΔS,4.45 ± 0.12 kcal/mol
CC[C@H](C)[C@H](NC(=O)[C@H](CCCNC(=N)N)NC(=O)NC[C@H](CCC(N)=O)NC(=O)NC[C@H](CC(C)C)NC(=O)NC[C@H](CCCNC(=N)N)NC(=O)NC[C@H](Cc1ccc2ccccc2c1)NC(=O)[C@H](CCCNC(=N)N)NC(=O)[C@H](CCC(=O)O)NC(C)=O)C(=O)N[C@@H](C)C(N)=O,Histone chaperone ASF1A,isothermal titration calorimetry,,"concentration not given, pH 7.5, 20 °C",,binding enthalpy,-3.5 ± 1.4 kcal/mol
COc1ccc(CCCN[C@H]2CCC[C@@H]2CN[C@H]2CCC[C@@H]2CNCCCCN[C@@H]2CCC[C@H]2CN)cc1,"Lysine-specific histone demethylase 2 (KDM1B, Homo sapiens, UniProt Q8NB78)",peroxidase-coupled,,,relative to: Ki for KDM1B over Ki for LSD1,selectivity ratio,1.8
